Results collected from several papers.
Several values in a cell are separate wells, animals, samples, runs or records. ± marks the error that the study gave.
Sequence of UniProt Q9Y2J8 (whole entry, looked up): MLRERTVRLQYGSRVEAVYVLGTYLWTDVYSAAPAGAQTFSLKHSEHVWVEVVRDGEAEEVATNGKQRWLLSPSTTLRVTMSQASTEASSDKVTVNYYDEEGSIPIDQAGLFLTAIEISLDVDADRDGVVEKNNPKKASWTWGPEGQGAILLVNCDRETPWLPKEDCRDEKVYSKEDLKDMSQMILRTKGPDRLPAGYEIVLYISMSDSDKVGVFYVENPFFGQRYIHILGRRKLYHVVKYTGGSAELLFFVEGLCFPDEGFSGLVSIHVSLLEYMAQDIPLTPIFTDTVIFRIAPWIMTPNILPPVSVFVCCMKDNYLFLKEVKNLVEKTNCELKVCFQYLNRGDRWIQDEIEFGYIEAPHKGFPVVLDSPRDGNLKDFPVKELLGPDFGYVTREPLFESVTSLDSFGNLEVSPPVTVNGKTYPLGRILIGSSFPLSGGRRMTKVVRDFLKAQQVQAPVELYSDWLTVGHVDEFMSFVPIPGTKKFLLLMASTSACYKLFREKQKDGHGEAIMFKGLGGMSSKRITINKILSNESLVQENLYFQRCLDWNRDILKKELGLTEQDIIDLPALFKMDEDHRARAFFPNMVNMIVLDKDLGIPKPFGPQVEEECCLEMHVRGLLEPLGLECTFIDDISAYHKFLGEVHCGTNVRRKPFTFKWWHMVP
Sequence of UniProt Q9NP55 (whole entry, looked up): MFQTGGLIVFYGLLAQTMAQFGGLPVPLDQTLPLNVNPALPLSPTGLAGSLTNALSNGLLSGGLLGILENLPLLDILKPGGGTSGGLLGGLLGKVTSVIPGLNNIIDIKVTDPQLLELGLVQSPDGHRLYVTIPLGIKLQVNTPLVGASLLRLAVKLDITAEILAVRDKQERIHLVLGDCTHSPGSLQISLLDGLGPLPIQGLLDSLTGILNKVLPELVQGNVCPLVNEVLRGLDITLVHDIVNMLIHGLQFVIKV
Sequence of UniProt Q15835 (whole entry, looked up): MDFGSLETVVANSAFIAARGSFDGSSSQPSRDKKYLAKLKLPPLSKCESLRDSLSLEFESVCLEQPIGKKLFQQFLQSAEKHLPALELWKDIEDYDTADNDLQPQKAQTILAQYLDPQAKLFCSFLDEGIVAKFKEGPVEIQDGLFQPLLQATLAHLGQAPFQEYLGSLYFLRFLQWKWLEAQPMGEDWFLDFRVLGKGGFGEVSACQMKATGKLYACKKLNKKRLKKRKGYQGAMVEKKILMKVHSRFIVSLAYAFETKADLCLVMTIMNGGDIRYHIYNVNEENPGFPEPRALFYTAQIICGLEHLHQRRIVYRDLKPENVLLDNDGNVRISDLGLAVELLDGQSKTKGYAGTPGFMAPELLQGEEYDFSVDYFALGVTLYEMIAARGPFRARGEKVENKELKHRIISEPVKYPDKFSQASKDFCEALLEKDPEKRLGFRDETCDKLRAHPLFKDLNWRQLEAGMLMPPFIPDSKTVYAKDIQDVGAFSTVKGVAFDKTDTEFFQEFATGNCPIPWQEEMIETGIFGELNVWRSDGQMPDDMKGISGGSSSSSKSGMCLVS
Sequence of UniProt P54753 (whole entry, looked up): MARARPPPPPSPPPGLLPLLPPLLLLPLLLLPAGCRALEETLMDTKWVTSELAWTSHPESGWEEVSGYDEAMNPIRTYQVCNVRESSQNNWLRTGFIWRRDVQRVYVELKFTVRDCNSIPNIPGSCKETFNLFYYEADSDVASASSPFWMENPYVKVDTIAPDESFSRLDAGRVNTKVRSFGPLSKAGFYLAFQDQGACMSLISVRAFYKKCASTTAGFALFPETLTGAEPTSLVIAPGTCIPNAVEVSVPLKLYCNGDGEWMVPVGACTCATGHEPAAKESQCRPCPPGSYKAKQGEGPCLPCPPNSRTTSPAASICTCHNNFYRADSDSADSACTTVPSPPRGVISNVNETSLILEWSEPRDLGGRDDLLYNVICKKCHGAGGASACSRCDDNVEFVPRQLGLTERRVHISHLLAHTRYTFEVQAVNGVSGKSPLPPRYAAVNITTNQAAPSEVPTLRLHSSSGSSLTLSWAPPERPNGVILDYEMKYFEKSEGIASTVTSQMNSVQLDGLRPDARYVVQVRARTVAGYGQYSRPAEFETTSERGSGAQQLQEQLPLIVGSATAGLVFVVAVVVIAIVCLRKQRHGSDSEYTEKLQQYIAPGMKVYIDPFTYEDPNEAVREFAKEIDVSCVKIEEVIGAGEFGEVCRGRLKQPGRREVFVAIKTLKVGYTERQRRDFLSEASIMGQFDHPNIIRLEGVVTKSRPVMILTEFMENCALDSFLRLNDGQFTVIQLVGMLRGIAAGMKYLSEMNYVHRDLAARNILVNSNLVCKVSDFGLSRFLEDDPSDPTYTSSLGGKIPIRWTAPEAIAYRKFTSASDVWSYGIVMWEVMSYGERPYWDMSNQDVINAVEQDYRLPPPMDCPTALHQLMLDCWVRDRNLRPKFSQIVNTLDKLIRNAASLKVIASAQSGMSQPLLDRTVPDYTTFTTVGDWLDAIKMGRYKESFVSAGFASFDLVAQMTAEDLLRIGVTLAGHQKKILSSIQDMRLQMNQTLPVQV
Sequence of UniProt P36897 (whole entry, looked up): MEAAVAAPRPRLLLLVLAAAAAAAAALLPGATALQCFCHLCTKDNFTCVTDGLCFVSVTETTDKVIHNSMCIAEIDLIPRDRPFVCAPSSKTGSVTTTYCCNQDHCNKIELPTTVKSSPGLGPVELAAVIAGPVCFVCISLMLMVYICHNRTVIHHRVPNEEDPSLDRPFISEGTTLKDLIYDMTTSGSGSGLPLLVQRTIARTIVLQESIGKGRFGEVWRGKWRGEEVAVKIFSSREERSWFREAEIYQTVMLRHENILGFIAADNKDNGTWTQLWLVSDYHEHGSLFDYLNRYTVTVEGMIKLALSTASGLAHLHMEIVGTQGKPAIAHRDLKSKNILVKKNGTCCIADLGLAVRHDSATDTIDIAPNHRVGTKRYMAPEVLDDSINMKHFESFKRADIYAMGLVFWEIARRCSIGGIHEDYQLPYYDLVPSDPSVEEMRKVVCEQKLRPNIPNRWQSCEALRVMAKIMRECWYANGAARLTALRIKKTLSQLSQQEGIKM
Sequence of UniProt P78362 (whole entry, looked up): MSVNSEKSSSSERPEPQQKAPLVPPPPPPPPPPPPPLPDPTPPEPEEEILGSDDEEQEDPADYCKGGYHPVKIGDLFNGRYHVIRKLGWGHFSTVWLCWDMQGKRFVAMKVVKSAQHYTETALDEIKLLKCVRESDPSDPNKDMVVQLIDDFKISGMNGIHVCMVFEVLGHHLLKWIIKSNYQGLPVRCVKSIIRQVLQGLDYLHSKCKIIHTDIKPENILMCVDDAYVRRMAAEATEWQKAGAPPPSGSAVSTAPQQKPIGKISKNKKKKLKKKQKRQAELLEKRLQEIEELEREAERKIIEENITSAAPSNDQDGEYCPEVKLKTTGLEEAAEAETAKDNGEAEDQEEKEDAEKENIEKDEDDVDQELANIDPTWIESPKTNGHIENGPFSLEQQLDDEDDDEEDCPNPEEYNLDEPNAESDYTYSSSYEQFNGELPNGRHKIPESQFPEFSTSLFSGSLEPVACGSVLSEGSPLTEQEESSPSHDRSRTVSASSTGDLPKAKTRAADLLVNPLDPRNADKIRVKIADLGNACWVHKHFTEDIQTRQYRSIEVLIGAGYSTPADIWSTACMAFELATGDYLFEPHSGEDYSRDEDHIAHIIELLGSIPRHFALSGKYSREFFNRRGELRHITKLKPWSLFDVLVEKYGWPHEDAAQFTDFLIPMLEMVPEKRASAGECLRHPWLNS
Sequence of UniProt Q6PHR2 (whole entry, looked up): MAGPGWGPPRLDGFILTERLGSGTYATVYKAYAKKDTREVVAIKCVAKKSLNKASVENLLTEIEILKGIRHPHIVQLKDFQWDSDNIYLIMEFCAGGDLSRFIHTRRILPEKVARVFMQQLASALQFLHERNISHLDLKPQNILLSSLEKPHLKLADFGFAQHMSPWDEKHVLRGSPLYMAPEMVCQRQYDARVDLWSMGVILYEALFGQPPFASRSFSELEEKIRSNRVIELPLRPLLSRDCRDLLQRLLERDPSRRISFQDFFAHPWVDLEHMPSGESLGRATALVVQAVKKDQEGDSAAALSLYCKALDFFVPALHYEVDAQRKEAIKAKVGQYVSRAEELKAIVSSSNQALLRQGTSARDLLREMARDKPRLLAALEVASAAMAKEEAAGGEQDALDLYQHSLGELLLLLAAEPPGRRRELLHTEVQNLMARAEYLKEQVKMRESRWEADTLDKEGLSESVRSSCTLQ
Sequence of UniProt P32241 (whole entry, looked up): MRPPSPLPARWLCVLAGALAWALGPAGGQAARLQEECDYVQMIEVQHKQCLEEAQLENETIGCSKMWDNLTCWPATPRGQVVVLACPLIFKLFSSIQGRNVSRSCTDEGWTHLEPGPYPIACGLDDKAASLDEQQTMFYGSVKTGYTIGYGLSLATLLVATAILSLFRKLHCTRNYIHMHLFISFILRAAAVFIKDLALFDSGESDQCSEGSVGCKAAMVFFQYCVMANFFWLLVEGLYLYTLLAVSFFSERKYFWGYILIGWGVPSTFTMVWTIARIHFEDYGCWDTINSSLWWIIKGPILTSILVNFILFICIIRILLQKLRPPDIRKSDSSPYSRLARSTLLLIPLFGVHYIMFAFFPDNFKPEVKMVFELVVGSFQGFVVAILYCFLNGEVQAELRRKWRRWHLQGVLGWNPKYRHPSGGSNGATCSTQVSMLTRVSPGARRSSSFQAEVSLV

COc1ccccc1-c1n[nH]c2nc(N[C@H]3CC[C@H](NS(=O)(=O)CC(C)C)CC3)ncc12 — relative abundance (BPI fold-containing family A member 1 (BPIFA1, Homo sapiens, UniProt Q9NP55); competitor, bead pull-down competition, measured: SPLUNC1; Leishmania donovani extract; 10 µM; reference: vehicle): 27.1
N[C@H](C(=O)N1CCCC1)C1CCN(c2nccc3c(-c4ncc(Cl)cc4Cl)cccc23)CC1 — kcat (PADI2 (Homo sapiens, UniProt Q9Y2J8); enzyme activity; 0.6144 µM, high-affinity site, together with: Ca2+ 1.5 mM): 1.37 s⁻¹ and 1.41 s⁻¹
CC(C)(C)C(=O)OCOP(=O)(OCOC(=O)C(C)(C)C)C1CCCN(O)C1=O (stereo not shown) — Log10LC50 (MDA-MB-231): > -4 log M
CCc1cccc2c(C(=O)NC3CCN(C(=O)C(C)C)CC3)c[nH]c12 — Hill slope (Genome polyprotein, 3C protease (rhinovirus B14, UniProt P03303); protease activity, SAMDI-MS): 0.965
Fc1cccc(F)c1/N=N/c1cccc([B-](F)(F)F)c1.[K+] — switching factor (Chymotrypsinogen A (Bos taurus, UniProt P00766); enzyme activity, inhibitor; together with: Suc-AAPF-AMC; reference: Ki cis over Ki trans): 2.1 ± 0.1
O=C1NC(=O)c2c1c1cc(F)c[n+]3c1c1c2c2cc(O)ccc2[n]1[Ru-4]312([N]=C=S)[S+]3CC[S+]1CC[S+]2CC3 (stereo not shown) — remaining activity (SRPK2 (Homo sapiens, UniProt P78362); enzyme activity; 100 nM, human enzyme, together with: 10 µM ATP; reference: untreated): 39%
CS(C)(=O)=Nc1ccc(-c2ccc(-c3nc4cc(O[C@@H]5CO[C@H]6[C@@H]5OC[C@H]6O)[nH]c4cc3F)cc2)cc1 — inhibition (FYN (Homo sapiens, UniProt P06241); enzyme activity, inhibitor; 10 µM): 3%
Cc1sc2c(c1C)C(c1ccc(Cl)cc1)=NC(CC(=O)OC(C)(C)C)c1nnc(C)n1-2 (stereo not shown) — remaining binding (VIPR1 (Homo sapiens, UniProt P32241); ligand displacement, radioligand; 1 µM): 109%
Cc1cnc(Nc2ccc(C3CCN(C)CC3)c(F)c2)nc1Nc1ccc(Cl)c(NS(=O)(=O)C(C)(C)C)c1 — selectivity ratio (ULK3 (Homo sapiens, UniProt Q6PHR2); reference: ULK3 IC50 over BRD4 IC50): 66 fold
COc1cc(OC)c2c(=O)cc(-c3cc(C)c(OCCCN4CCN(C)CC4)c(C)c3)oc2c1 — selectivity ratio (Bromodomain-containing protein 4, BD1 (BRD4, Homo sapiens, UniProt O60885); binding, TR-FRET; reference: other BET bromodomains over BRD4): > 10 fold
CC(C)[C@H]1NC(=O)C[C@H]2/C=C/CCSSC[C@@H](NC1=O)C(=O)N[C@H](Cc1cccc3ccccc13)C(=O)NCC(=O)O2 — inhibition (DYRK1A (Homo sapiens, UniProt Q13627); enzyme activity, inhibitor; 10 µM): 1.5%
O=C(N[C@@H]1c2ccccc2C[C@H]1N1CCCC1)c1ccc(-c2ccnc3[nH]ccc23)nc1 — remaining binding (GRK1 (Homo sapiens, UniProt Q15835); binding, competition with immobilised ligand; 3 µM): 25%
Cc1cc(C(=O)Nc2nc3cccc(C)c3n2[C@H]2CCCCN(C(=O)/C=C/CN(C)C)C2)ccn1 — cells in sub-G0 phase (Trypanosoma brucei; propidium iodide flow cytometry; bloodstream form; concentration not given, 72 h): 5.38%
CC[C@H](C)[C@H](NC(=O)[C@H](CO)NC(=O)[C@H](Cc1ccc(O)cc1)NC(=O)[C@H](Cc1ccc(O)cc1)NC(=O)[C@H](CC(N)=O)NC(=O)CNC(=O)[C@H](CO)NC(=O)[C@H](Cc1ccc(O)cc1)NC(=O)[C@H](CO)NC(=O)[C@H](CO)NC(=O)[C@H](CC(N)=O)NC(=O)COCCOCCNC(=O)CN1CCN(CC(=O)O)CCN(CC(=O)O)CCN(CC(=O)O)CC1)C(=O)N[C@@H](CC(C)C)C(N)=O [copper-64 labelled] — tissue uptake (dynamic PET; KPC mouse Ptf1a-CreER tdTomato, pancreas; intravenous, dose not given, 1.9 min, 84 d after tamoxifen): 15.2 %ID/mL
CN(C)[C@H]1C[C@@]23CC[C@@]4(O2)C(=CC[C@]2(C)[C@@H](c5ccc6ccncc6c5)CC[C@H]24)C=C3[C@@H](O)[C@@H]1O — inhibition (EPHB3 (Homo sapiens, UniProt P54753); ATP probe labelling, inhibitor, KiNativ profiling; 0.1 µM): 19.2%
CN(C)CCCSC(=S)N1CCN(C(=O)/C=C/c2coc3ccccc3c2=O)CC1 — MST response (Nucleoprotein (N, Tomato spotted wilt virus, UniProt P25999, R94A/Y184A); binding, microscale thermophoresis; 3.906 µM; dose series): 0.899 a.u.
C[C@H](NCc1ccc(-c2ccc(C(F)(F)F)cc2)cc1)C(N)=O — inhibition (GABBR1 (Homo sapiens, UniProt Q9UBS5); radioligand binding, SafetyScreen panel; 1 µM, species human, together with: 4.0 nM [3H]CGP-54626): -4%
Nc1ccc(/C=C/C(=O)N2CCc3c(oc4c(-c5ccc(F)cc5)cc(-c5ccc(C(=O)N6CCC(F)(F)CC6)cn5)cc34)C2)cn1 — remaining binding (TGFBR1 (Homo sapiens, UniProt P36897); binding, competition with immobilised ligand; 1 µM): 96%
O=C1NC2(CC2)COc2ncc(F)cc2[C@H]2COCCN2c2ccn3ncc1c3n2 — reticulocytes (Sprague-Dawley rat, female, blood; oral, 20 mg/kg/day, end of recovery, 4-week repeated-dose toxicity; reference: red blood cells): 2.08 ± 0.69%

For quick reference, copied from above:
Fc1cccc(F)c1/N=N/c1cccc([B-](F)(F)F)c1.[K+] — switching factor (Chymotrypsinogen A (Bos taurus, UniProt P00766); enzyme activity, inhibitor; together with: Suc-AAPF-AMC; reference: Ki cis over Ki trans): 2.1 ± 0.1
O=C1NC(=O)c2c1c1cc(F)c[n+]3c1c1c2c2cc(O)ccc2[n]1[Ru-4]312([N]=C=S)[S+]3CC[S+]1CC[S+]2CC3 (stereo not shown) — remaining activity (SRPK2 (Homo sapiens, UniProt P78362); enzyme activity; 100 nM, human enzyme, together with: 10 µM ATP; reference: untreated): 39%
